Published values pooled from the literature.
Each line is one published result; not all experiments were run side by side. “And” joins repeats or separate records; there may be more than shown. Numbers after ± are the reported error.
Sequence of UniProt P11388 (whole entry, looked up): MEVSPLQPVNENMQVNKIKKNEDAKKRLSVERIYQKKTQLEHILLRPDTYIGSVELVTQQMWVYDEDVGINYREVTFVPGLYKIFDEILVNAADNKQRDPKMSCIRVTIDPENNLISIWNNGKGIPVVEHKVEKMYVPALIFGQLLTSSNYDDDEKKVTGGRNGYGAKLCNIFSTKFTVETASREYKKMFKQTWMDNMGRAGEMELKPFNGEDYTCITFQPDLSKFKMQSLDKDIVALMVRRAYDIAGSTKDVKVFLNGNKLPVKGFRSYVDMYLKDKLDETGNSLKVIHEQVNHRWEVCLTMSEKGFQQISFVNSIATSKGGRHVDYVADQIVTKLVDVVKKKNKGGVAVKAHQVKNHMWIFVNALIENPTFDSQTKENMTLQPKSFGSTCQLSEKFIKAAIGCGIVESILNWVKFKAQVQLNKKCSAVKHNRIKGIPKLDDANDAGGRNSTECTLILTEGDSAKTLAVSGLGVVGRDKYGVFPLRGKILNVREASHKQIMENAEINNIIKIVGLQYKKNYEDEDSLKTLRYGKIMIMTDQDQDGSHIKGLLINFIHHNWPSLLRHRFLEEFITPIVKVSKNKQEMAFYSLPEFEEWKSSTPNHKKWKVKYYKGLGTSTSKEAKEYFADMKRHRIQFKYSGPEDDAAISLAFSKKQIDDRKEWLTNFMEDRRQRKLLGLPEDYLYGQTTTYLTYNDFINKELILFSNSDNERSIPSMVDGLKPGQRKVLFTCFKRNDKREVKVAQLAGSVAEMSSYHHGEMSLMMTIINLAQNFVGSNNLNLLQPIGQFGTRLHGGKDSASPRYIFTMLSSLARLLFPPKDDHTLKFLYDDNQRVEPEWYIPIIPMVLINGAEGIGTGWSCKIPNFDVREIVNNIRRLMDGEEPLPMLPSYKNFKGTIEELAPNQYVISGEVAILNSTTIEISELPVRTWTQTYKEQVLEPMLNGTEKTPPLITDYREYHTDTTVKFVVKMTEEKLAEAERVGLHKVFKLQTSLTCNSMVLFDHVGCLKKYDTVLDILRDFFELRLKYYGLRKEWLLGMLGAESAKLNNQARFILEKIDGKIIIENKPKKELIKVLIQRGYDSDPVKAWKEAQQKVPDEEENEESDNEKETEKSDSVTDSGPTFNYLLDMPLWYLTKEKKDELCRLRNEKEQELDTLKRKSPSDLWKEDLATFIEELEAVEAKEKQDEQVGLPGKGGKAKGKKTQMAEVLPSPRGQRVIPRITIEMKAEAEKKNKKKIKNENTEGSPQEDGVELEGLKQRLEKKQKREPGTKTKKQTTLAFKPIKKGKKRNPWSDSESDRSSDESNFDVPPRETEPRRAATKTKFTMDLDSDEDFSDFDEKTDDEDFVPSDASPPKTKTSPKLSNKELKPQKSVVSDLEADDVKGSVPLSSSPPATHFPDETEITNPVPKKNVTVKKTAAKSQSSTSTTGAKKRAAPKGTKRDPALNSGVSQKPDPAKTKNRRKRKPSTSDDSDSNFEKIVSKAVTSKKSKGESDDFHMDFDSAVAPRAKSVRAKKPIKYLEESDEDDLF

Structure (SMILES)	target or system	assay	test system	setting	scale	measurement	result
Fc1ccccc1Cc1nc(-c2nc(C(F)(F)F)n[nH]2)cn2ccnc12	–	–	healthy volunteers	0.3 mg, single ascending dose	reference: placebo	smooth pursuit eye movements	-0.97%
COC(=O)Nc1c(N)nc(-c2nn(Cc3ccccc3F)c3ncc(F)cc23)nc1N	–	–	healthy white men	dose not given, day 14, 336 h, LS mean difference, added: sildenafil 50 mg	reference: placebo	seated HR maximum increase	0.42 bpm
OC[C@H]1O[C@@H](O[C@@H]2[C@@H](O)[C@H](O[C@@H]3[C@@H](O)[C@H](O[C@@H]4[C@@H](O)[C@H](O[C@H]5[C@H](O)[C@@H](CO)OC(O)[C@@H]5O)O[C@H](CO)[C@H]4O)O[C@H](CO)[C@H]3O)O[C@H](CO)[C@H]2O)[C@H](O)[C@@H](O)[C@@H]1O (stereo partly drawn)	Bacteroides thetaiotaomicron	binding, ITC	–	pH 7.0, 25 °C, middle domain	–	ΔG	-26.1 kcal/mol
CC1COc2ccccc2N1C(=O)C(Cl)Cl (stereo not drawn)	carboxylesterase	–	male rhesus monkey liver microsomes	5 µM, 30 min, pH 7.4, without NADPH	–	remaining compound	63 ± 1%
N#CCC1CCN(c2nc(Nc3ccc(N4CCC(O)CC4)cc3)c3c(=O)[nH]ncc3n2)CC1	–	vs placebo, Olink multiplex	human, serum	20 mg, day 15, unit not given	reference: placebo	GIF level difference	1.1
OC[C@H]1O[C@@H](O[C@@H]2[C@@H](O)[C@H](O[C@@H]3[C@@H](O)[C@H](O[C@@H]4[C@@H](O)[C@H](O[C@@H]5[C@@H](O)[C@H](O[C@H]6[C@H](O)[C@@H](CO)OC(O)[C@@H]6O)O[C@H](CO)[C@H]5O)O[C@H](CO)[C@H]4O)O[C@H](CO)[C@H]3O)O[C@H](CO)[C@H]2O)[C@H](O)[C@@H](O)[C@@H]1O (stereo partly drawn)	Bacteroides thetaiotaomicron	binding, ITC	–	pH 7.0, 25 °C, distal domain	–	ΔH	-46.9 kcal/mol
Clc1nc(NCc2ccco2)c2[nH]cnc2n1	B-lymphoblastoid cells	RT-PCR, measured: GLA poison exon inclusion	–	–	–	concentration for poison exon suppression	≥ 10 µM
COc1ccccc1CNC(=O)c1cc(S(=O)(=O)N2CCn3nccc3C2)c(C)n1C	Replicase polyprotein 1ab, nsp14 (rep, Severe acute respiratory syndrome coronavirus 2, UniProt P0DTD1)	inhibitor	–	–	–	IC50	32 nM and 11 nM
CO/N=C(\C(=O)N[C@@H]1C(=O)N2C(C(=O)O)=C(COC(C)=O)CS[C@H]12)c1csc(N)n1	Salmonella enterica serovar Typhimurium	broth microdilution	clinical isolate RKI-No 437/14	–	–	MIC	> 16 µg/mL
COc1cc([C@@H]2c3cc4c(cc3[C@@H](O[C@@H]3O[C@@H]5CO[C@@H](C)O[C@H]5[C@H](O)[C@H]3O)[C@H]3COC(=O)[C@H]23)OCO4)cc(OC)c1O	TOP2A (Homo sapiens, UniProt P11388)	DNA cleavage	–	200 µM, replicate 1	–	linear DNA	35.3%
COC(=O)Nc1c(N)nc(-c2nn(Cc3ccccc3F)c3ncc(F)cc23)nc1N	–	–	human, male, plasma	15 mg, geometric mean, added: aspirin	–	Cmax	414 ng/mL
CC(C)C[C@H](NC(=O)OCc1ccccc1)C(=O)N[C@H](C=O)C[C@@H]1CCCNC1=O	SARS-CoV-2	viral replication, RT-qPCR viral load	Caco-2	72 h	–	EC90	100 ± 20 nM
